Assay results collected from several papers.
Each numbered part is a random draw from the data of one study; scales do not carry over between parts.
Sequence of UniProt Q15759 (whole entry, looked up): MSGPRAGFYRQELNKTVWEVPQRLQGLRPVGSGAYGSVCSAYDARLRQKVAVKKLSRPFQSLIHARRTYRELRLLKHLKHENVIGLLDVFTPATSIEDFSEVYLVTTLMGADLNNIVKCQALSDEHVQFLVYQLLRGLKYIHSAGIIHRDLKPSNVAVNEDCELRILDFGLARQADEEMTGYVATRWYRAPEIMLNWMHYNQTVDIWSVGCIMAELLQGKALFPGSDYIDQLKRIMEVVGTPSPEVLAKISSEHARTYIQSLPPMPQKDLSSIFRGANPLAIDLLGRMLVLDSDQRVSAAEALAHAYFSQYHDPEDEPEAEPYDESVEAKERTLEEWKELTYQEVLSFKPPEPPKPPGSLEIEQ
Sequence of UniProt Q6P2M8 (whole entry, looked up): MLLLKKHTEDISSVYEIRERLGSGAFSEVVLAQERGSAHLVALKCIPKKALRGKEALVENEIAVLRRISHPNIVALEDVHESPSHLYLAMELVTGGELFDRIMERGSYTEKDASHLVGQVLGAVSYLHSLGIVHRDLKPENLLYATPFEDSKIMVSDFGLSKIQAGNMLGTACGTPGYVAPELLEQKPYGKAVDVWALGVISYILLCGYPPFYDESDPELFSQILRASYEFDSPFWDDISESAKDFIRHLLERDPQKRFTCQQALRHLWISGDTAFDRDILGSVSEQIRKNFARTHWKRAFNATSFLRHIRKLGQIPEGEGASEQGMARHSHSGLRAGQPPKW
Sequence of UniProt Q9HAZ1 (whole entry, looked up): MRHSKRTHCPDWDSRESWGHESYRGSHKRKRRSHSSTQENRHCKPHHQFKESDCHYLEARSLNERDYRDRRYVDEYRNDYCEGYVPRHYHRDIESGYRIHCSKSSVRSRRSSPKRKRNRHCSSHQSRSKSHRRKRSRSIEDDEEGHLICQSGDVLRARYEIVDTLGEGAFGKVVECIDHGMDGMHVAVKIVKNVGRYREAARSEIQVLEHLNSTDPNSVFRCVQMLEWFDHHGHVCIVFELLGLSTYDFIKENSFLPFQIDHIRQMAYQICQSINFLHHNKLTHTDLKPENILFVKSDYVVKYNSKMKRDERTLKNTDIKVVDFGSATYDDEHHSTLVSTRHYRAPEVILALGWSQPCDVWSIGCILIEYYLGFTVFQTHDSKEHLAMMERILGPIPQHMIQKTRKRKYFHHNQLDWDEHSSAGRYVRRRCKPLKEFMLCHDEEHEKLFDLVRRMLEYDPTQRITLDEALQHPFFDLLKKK
Sequence of UniProt P28482 (whole entry, looked up): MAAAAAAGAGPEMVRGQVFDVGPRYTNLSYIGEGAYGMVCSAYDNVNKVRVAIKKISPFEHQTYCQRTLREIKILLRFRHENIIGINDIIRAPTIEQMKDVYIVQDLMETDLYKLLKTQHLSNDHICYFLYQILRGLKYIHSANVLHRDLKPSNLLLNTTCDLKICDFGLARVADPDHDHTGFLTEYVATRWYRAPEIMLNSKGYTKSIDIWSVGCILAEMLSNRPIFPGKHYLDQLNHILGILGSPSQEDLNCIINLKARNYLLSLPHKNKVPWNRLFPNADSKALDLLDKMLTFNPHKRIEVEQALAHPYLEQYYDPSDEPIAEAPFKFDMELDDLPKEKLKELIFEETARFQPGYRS
Sequence of UniProt P49761 (whole entry, looked up): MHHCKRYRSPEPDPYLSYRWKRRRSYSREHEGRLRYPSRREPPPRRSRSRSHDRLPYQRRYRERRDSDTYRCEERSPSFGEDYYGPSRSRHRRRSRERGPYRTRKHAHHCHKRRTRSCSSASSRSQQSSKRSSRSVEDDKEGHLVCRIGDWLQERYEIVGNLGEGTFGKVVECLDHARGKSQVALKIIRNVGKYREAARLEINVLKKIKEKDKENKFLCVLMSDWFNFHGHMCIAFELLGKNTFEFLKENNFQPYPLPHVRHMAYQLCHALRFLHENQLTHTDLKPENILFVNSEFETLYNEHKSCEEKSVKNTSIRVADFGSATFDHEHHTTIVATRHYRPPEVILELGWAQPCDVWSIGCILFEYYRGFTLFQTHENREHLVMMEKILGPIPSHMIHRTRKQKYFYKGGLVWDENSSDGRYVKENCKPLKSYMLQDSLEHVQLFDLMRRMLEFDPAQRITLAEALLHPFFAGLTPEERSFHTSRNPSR
Sequence of UniProt Q13464 (whole entry, looked up): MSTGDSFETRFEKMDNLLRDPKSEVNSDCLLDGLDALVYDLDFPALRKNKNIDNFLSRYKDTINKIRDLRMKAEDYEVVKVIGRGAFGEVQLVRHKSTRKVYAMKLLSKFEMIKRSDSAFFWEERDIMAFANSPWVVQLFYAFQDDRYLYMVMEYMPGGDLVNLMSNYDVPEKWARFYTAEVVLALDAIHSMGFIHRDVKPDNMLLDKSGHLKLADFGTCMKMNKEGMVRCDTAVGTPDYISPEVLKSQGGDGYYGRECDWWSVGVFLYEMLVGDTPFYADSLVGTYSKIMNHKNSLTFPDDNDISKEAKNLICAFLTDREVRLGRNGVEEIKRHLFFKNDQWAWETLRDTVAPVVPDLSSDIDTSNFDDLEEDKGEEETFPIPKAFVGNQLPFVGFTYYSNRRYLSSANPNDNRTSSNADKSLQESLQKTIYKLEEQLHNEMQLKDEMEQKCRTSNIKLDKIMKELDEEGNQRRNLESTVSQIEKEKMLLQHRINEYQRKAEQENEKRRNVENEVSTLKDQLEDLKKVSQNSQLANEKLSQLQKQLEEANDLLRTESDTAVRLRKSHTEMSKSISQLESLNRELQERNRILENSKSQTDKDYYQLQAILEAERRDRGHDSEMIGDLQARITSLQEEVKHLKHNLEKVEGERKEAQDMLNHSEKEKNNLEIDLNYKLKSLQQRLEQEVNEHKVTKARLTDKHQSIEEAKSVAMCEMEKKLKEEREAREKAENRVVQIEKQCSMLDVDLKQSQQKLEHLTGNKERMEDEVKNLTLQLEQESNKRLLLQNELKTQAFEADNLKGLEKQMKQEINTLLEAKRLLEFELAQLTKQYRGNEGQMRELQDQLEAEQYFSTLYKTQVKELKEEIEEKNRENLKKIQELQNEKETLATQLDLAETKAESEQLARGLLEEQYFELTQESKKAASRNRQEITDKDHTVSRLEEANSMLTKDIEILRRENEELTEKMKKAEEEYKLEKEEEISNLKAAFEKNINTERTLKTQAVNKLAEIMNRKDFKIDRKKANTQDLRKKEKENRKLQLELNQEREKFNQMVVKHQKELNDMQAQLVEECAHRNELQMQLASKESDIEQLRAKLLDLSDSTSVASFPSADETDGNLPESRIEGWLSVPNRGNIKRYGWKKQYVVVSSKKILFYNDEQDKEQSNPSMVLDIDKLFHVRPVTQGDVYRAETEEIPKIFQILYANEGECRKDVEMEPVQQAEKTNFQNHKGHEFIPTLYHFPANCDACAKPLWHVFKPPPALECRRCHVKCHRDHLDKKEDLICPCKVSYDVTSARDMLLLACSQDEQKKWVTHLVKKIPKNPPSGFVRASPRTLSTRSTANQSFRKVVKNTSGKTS
Sequence of UniProt P51956 (whole entry, looked up): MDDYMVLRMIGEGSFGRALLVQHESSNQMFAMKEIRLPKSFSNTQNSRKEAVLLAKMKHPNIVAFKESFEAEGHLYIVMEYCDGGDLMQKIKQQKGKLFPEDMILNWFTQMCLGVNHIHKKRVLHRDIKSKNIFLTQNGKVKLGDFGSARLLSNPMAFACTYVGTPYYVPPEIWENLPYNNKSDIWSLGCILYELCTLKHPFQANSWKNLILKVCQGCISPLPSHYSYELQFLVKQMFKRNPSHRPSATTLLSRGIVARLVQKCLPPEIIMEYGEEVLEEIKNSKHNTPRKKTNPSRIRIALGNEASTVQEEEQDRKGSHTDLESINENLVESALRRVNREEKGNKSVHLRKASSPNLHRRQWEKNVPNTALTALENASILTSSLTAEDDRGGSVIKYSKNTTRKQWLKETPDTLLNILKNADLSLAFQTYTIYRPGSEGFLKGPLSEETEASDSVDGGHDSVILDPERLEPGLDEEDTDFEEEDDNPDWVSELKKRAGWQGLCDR
Sequence of UniProt Q8N568 (whole entry, looked up): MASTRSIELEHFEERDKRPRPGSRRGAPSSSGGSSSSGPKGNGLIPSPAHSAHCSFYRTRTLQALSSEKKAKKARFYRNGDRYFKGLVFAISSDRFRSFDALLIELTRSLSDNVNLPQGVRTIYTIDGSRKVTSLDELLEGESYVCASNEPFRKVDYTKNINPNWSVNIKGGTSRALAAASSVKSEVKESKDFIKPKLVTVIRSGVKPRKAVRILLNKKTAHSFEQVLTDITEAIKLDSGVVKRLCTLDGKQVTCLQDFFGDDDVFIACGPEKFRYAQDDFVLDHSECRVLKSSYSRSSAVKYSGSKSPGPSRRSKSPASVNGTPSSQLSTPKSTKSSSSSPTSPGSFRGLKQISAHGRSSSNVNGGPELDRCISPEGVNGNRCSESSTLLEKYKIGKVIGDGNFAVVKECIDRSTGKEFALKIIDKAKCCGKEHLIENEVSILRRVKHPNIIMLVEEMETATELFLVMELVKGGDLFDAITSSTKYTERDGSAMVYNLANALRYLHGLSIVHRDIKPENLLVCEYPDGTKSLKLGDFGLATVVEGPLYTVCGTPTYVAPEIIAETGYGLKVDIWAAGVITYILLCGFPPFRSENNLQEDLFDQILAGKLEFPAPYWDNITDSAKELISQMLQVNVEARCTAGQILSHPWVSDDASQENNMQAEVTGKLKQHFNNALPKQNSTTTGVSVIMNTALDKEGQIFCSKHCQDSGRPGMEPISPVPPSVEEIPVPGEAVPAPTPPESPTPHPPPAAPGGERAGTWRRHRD
Sequence of UniProt P06493 (whole entry, looked up): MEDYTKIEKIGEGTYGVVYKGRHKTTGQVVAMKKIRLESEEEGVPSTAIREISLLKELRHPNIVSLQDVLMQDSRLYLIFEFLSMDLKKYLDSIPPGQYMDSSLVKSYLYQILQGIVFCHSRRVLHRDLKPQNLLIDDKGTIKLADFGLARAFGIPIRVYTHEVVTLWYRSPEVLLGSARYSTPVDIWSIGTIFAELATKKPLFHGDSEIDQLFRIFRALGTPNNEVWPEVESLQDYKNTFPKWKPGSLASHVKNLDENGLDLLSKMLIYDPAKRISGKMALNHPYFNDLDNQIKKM

Set 1
SMILES: CN(C)S(=O)(=O)c1ccc2c(c1)/C(=C/c1cc3c([nH]1)CCCC3)C(=O)N2
Observed: enzyme activity
Mode: inhibitor
Concentration: 0.5 µM
Relative to: control
target | remaining activity [%]
Serine/threonine-protein kinase DCLK2 (DCLK2, Homo sapiens, UniProt Q8N568) | 72
Myosin-IIIb (MYO3B, Homo sapiens, UniProt Q8WXR4) | 98.9
Dual specificity protein kinase CLK4 (CLK4, Homo sapiens, UniProt Q9HAZ1) | 50.7
Rho-associated protein kinase 1 (ROCK1, Homo sapiens, UniProt Q13464) | 95.2
Calcium/calmodulin-dependent protein kinase type 1B (PNCK, Homo sapiens, UniProt Q6P2M8) | 95.7
Dual specificity mitogen-activated protein kinase kinase 1 (MAP2K1, Homo sapiens, UniProt Q02750) | 88.7
Mitogen-activated protein kinase 11 (MAPK11, Homo sapiens, UniProt Q15759) | 108
G protein-coupled receptor kinase 4 (GRK4, Homo sapiens, UniProt P32298) | 79.8
Mitogen-activated protein kinase 1 (MAPK1, Homo sapiens, UniProt P28482) | 101
Dual specificity protein kinase CLK3 (CLK3, Homo sapiens, UniProt P49761) | 92.9
Hepatocyte growth factor receptor (MET, Homo sapiens, UniProt P08581) | 92.2
Serine/threonine-protein kinase MARK2 (MARK2, Homo sapiens, UniProt Q7KZI7) | 61.7
Cyclin-dependent kinase 1, with cyclin A (CDK1, Homo sapiens, UniProt P06493) | 70.6
Serine/threonine-protein kinase Nek3 (NEK3, Homo sapiens, UniProt P51956) | 98.2

Set 2
SMILES: COc1cc(C(=O)N2CCC(N3CCN(C)CC3)CC2)ccc1Nc1ncc2c(n1)N(C)c1ccccc1C(=O)N2C
tested on | test | system | setting | inhibition
MAP2K4 (human) | probe labelling, KiNativ ADP probe | human PBMC lysate | concentration not given, LYS2 labelled site | 9.2%
human PBMC | probe labeling, inhibitor, KiNativ profiling, measured: ALYATkTLR | cell lysate | 1 µM, LYS1 site, with: ATP acyl-phosphate probe | -0.6%
mouse PCTAIRE1/2/3 | probe labelling, KiNativ ATP probe | mouse brain lysate | 1 µM, LYS2 site DLkPQNLLINER | -14.5%
mouse ROCK1 and ROCK2 | probe labelling, KiNativ ATP probe | mouse brain lysate | 0.1 µM, LYS2 site DVkPDNMLLDK | -5.4%
BRAF (mouse) | probe labelling, KiNativ ADP probe | mouse brain lysate | 1 µM, LYS2 labelled site | 3.5%
mouse NUAK1 | probe labelling, KiNativ ADP probe | mouse brain lysate | 1 µM | 0.9%
BTK human | KiNativ profiling | human PBMC | concentration not given, activation loop site, with: ATP acyl phosphate probe | 4.3%

Set 3
Structure (SMILES): O=C(O)[C@@H]1[C@@H](Cn2nnc3ccccc3c2=O)CC[C@H]1C(=O)c1ccc(OCCC2CCOCC2)cc1
Technique: competition with immobilised ligand
Concentration: 1 µM
target | test | remaining binding
Receptor-interacting serine/threonine-protein kinase 4 (RIPK4, Homo sapiens, UniProt P57078) | cell-free assay | 81%
Macrophage colony-stimulating factor 1 receptor, autoinhibited (CSF1R, Homo sapiens, UniProt P07333) | cell-free assay | 94%
Inhibitor of nuclear factor kappa-B kinase subunit beta (IKBKB, Homo sapiens, UniProt O14920) | cell-free assay | 100%
Serine/threonine-protein kinase 32A (STK32A, Homo sapiens, UniProt Q8WU08) | binding | 92%
Ephrin type-B receptor 3 (EPHB3, Homo sapiens, UniProt P54753) | cell-free assay | 100%
Homeodomain-interacting protein kinase 3 (HIPK3, Homo sapiens, UniProt Q9H422) | cell-free assay | 100%

Set 4
Organism: Sarcocystis neurona
Observed: parasite activity
Concentration: 10 µM
Time: 96 h
SMILES | activity class
CN1CCC(=C2c3ccccc3C=Cc3ccccc32)CC1 | inactive
CC1(C)O[C@@H]2[C@@H](CO[C@@]3(COS(N)(=O)=O)OC(C)(C)O[C@@H]23)O1 | inactive
CC(C)(C)C(O)/C=C/c1ccc2c(c1)OCO2 (centres unmarked) | inactive
NNC(=O)c1ccncc1 | inactive
CN(C)CCCSc1ccccc1NC(=O)/C=C/c1ccccc1 | inactive

Some of these lines once more (set 3):
target | test | remaining binding
Macrophage colony-stimulating factor 1 receptor, autoinhibited (CSF1R, Homo sapiens, UniProt P07333) | cell-free assay | 94%
Homeodomain-interacting protein kinase 3 (HIPK3, Homo sapiens, UniProt Q9H422) | cell-free assay | 100%
